Experimental data from different studies.
Each numbered part is a random draw from the data of one study; scales do not carry over between parts. “And” joins repeats or separate records; there may be more than shown.
UniProt Q16832, sequence (whole entry, looked up): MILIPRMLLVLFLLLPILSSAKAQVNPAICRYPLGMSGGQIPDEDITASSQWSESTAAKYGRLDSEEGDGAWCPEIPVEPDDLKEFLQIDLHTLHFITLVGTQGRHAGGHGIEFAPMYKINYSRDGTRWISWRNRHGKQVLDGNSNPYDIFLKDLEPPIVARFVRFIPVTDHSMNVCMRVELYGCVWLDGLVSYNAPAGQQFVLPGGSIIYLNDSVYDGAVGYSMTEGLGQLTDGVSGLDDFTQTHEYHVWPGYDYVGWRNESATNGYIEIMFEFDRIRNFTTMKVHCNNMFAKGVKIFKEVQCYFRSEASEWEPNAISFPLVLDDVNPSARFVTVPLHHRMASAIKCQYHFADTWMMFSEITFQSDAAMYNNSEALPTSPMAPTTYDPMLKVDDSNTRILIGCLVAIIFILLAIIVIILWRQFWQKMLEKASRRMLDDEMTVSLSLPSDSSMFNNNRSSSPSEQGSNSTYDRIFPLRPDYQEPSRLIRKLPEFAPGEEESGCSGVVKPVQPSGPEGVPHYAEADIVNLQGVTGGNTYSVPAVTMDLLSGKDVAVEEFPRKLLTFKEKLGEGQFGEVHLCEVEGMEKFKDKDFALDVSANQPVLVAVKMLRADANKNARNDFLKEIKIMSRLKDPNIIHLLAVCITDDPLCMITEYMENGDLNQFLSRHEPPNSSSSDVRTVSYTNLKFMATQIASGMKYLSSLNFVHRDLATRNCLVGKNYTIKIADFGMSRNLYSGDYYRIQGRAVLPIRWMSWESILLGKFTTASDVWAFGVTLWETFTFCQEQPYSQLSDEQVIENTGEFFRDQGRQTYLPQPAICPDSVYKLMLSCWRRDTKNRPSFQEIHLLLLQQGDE
UniProt P29322, sequence (whole entry, looked up): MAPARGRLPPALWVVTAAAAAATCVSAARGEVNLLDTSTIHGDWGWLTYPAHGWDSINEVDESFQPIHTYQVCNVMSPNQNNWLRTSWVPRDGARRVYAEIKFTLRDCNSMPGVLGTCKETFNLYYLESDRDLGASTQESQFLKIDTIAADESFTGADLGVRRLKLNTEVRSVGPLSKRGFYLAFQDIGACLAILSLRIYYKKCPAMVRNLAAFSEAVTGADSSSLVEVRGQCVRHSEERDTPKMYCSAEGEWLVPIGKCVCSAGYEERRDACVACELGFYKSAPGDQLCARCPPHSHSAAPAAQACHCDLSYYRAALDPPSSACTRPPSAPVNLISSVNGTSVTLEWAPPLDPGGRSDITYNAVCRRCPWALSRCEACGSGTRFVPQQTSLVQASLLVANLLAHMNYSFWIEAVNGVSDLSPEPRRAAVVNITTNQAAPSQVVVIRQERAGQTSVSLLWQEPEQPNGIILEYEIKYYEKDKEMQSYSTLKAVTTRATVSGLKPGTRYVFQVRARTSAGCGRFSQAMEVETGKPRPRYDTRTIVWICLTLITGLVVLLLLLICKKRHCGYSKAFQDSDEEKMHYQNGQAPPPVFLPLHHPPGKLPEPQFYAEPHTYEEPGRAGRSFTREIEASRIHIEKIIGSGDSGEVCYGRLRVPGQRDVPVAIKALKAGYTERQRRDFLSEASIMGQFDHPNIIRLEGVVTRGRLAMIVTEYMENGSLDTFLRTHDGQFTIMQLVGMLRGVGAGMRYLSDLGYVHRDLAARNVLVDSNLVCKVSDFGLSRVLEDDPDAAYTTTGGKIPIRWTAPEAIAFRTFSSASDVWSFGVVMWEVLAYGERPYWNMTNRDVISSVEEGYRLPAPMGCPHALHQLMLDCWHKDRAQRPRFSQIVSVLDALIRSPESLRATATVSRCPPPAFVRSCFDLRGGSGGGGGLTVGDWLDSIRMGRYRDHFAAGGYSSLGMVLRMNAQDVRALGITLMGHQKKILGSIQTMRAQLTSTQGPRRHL
UniProt P49761, sequence (whole entry, looked up): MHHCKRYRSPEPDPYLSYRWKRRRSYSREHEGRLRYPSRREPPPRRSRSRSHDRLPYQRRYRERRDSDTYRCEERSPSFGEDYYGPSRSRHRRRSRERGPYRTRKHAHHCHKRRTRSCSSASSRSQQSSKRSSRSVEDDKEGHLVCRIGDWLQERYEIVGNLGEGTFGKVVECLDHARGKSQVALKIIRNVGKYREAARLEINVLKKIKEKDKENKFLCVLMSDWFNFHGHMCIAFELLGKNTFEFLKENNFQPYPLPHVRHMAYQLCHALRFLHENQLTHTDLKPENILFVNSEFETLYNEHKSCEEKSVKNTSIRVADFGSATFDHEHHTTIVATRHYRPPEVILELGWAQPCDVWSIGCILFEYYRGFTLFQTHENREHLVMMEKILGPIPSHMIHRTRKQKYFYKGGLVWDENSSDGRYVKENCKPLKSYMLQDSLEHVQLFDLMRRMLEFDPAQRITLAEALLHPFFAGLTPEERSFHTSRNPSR

Study 1
Compound: CCN(CC)C(=O)c1ccc(Nc2nc(OCC3CCCCC3)c3[nH]cnc3n2)cc1
Effect on: enzyme activity
Action: inhibitor
Tested at: 0.5 µM
Baseline: control
Serine/threonine-protein kinase PLK3 (PLK3, Homo sapiens, UniProt Q9H4B4) — remaining activity: 98.1%.
It gave 117% for remaining activity (Calcium/calmodulin-dependent protein kinase type 1B (PNCK, Homo sapiens, UniProt Q6P2M8)).
For Discoidin domain-containing receptor 2 (DDR2, Homo sapiens, UniProt Q16832): remaining activity read 109%.
Serine/threonine-protein kinase MARK2 (MARK2, Homo sapiens, UniProt Q7KZI7) — remaining activity: 75.3%.
It gave 93.8% for remaining activity (MAP/microtubule affinity-regulating kinase 4 (MARK4, Homo sapiens, UniProt Q96L34)).
Mitogen-activated protein kinase 14 (MAPK14, Homo sapiens, UniProt Q16539) — remaining activity: 94.7%.
For G protein-coupled receptor kinase 4 (GRK4, Homo sapiens, UniProt P32298): remaining activity read 93%.
The remaining activity was 88.5% (Misshapen-like kinase 1 (MINK1, Homo sapiens, UniProt Q8N4C8)).
For Serine/threonine-protein kinase Nek3 (NEK3, Homo sapiens, UniProt P51956): remaining activity read 69.4%.
The remaining activity was 54.9% (Rho-associated protein kinase 1 (ROCK1, Homo sapiens, UniProt Q13464)).
For Dual specificity protein kinase CLK3 (CLK3, Homo sapiens, UniProt P49761): remaining activity read 84.1%.
It gave 76.5% for remaining activity (Vascular endothelial growth factor receptor 2 (KDR, Homo sapiens, UniProt P35968)).
It gave 97.3% for remaining activity (Serine/threonine-protein kinase DCLK2 (DCLK2, Homo sapiens, UniProt Q8N568)).
Hepatocyte growth factor receptor (MET, Homo sapiens, UniProt P08581) — remaining activity: 85.3%.
For Serine/threonine-protein kinase MRCK beta (CDC42BPB, Homo sapiens, UniProt Q9Y5S2): remaining activity read 99.3%.
It gave 72.6% for remaining activity (Cyclin-dependent kinase 9, with cyclin K (CDK9, Homo sapiens, UniProt P50750)).
The remaining activity was 87.7% (Serine/threonine-protein kinase PAK 3 (PAK3, Homo sapiens, UniProt O75914)).
The remaining activity was 79.8% (Ribosomal protein S6 kinase alpha-4 (RPS6KA4, Homo sapiens, UniProt O75676)).
Dual specificity protein kinase CLK4 (CLK4, Homo sapiens, UniProt Q9HAZ1) — remaining activity: 44.2%.
RAC-beta serine/threonine-protein kinase (AKT2, Homo sapiens, UniProt P31751) — remaining activity: 92%.
For Tyrosine-protein kinase TXK (TXK, Homo sapiens, UniProt P42681): remaining activity read 46%.
Cyclin-dependent kinase 1, with cyclin A (CDK1, Homo sapiens, UniProt P06493) — remaining activity: 95.2%.
The remaining activity was 94.1% (Dual specificity mitogen-activated protein kinase kinase 1 (MAP2K1, Homo sapiens, UniProt Q02750)).
It gave 106% for remaining activity (Mitogen-activated protein kinase 1 (MAPK1, Homo sapiens, UniProt P28482)).
It gave 97.7% for remaining activity (Calcium/calmodulin-dependent protein kinase type IV (CAMK4, Homo sapiens, UniProt Q16566)).

Study 2
Target: DNA polymerase theta, helicase domain (POLQ, Homo sapiens, UniProt O75417)
UniProt O75417, sequence (whole entry, looked up): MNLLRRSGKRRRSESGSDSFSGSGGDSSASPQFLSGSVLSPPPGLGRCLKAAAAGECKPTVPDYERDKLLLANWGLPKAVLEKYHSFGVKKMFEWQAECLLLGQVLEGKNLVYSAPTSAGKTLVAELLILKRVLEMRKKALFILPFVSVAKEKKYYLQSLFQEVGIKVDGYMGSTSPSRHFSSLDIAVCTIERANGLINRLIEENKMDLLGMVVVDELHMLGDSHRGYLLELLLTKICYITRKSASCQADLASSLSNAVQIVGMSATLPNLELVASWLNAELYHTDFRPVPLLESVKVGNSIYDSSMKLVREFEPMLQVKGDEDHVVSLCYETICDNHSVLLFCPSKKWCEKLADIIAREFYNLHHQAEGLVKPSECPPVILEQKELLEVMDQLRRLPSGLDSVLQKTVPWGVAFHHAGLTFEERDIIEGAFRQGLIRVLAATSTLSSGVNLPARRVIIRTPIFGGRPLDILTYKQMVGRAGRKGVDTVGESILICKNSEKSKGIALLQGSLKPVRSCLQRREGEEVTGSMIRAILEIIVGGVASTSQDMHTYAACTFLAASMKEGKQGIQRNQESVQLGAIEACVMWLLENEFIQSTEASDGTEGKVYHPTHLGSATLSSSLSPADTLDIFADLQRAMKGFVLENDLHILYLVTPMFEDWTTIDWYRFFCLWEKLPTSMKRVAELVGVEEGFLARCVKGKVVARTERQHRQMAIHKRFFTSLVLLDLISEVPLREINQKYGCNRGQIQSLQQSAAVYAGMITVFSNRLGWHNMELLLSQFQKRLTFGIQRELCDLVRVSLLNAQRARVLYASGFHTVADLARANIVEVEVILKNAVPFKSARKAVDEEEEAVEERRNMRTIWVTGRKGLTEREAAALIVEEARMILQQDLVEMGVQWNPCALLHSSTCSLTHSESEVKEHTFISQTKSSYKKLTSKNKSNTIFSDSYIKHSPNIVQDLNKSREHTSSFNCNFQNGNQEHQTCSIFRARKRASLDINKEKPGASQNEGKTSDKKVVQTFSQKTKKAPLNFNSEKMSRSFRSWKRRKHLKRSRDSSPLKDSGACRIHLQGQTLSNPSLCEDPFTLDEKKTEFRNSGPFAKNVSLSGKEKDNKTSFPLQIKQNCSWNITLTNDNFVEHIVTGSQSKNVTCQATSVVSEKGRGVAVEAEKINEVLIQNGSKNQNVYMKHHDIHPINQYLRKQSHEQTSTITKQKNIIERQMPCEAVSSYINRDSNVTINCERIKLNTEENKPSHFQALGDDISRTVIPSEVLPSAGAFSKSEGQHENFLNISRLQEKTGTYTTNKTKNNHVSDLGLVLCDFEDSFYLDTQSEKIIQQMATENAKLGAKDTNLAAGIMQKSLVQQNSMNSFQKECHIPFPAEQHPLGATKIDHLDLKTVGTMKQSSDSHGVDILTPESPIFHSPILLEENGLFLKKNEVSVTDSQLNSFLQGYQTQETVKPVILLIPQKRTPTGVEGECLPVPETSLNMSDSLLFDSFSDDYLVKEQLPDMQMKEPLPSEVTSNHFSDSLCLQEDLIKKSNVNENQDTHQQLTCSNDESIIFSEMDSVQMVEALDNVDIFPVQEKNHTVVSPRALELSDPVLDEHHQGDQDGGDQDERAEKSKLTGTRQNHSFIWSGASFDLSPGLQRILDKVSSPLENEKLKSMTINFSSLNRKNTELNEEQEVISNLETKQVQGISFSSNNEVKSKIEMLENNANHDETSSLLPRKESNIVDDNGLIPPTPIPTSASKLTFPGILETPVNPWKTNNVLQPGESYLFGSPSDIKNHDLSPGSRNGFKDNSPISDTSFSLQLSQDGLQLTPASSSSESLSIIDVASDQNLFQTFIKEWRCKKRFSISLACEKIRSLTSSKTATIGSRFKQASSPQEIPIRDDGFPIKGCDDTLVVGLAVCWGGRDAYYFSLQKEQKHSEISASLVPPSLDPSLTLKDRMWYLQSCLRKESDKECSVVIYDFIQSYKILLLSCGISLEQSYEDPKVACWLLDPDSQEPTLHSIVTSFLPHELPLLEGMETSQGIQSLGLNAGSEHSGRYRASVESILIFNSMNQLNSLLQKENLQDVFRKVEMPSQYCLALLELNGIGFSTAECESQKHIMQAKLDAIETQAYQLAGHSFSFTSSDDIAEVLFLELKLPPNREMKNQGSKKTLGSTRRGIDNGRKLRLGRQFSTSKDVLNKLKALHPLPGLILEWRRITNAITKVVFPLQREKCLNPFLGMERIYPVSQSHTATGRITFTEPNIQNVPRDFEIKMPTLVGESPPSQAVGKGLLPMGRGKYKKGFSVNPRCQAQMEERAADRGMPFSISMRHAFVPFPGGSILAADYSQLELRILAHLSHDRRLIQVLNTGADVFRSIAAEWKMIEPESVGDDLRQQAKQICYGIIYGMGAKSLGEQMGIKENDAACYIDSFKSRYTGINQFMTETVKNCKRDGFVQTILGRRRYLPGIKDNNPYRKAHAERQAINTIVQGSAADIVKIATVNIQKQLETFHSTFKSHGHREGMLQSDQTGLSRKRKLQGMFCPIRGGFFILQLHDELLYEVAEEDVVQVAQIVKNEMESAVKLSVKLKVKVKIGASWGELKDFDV
Action: inhibitor
Tested at: concentration not given
Added: without ssDNA
With `CC(=O)Oc1ccccc1C(=O)Nc1ncc([N+](=O)[O-])s1` the remaining activity was 51.8% and 50.6%.
`N#CSc1cc(SC#N)c(N)nc1N` gave a remaining activity of 88.5% and 94.4%.
With `Cc1ccc(NC(=O)CSc2ncc(S(=O)(=O)c3ccc(C(C)C)cc3)c(=O)[nH]2)cc1C` the remaining activity was 88.6% and 95.6%.
`COc1ccc(S(=O)(=O)c2cnc(SCC(=O)Nc3cc(F)ccc3C)[nH]c2=O)cc1Cl` has a remaining activity of 80.2% and 77.4%.
For `O=C(O)[C@]1(Cc2cccc(Nc3nccs3)n2)CC[C@@H](Oc2cccc(Cl)c2F)CC1`, the remaining activity was 50.7% and 51.6%.
`COc1cccc2c1C(=O)c1c(O)c3c(c(O)c1C2=O)C[C@@](O)(C(=O)CO)C[C@@H]3O[C@H]1C[C@H](N)[C@H](O)[C@H](C)O1` gave a remaining activity of 96.6% and 95.7%.
`CC(=O)[C@]1(O)Cc2c(O)c3c(c(O)c2[C@@H](O[C@H]2C[C@H](N)[C@H](O)[C@H](C)O2)C1)C(=O)c1ccccc1C3=O` has a remaining activity of 99.5% and 99.7% and 102%.
With `COc1cccc(C2C3=C(NN/C3=C3/C=CC=CC3=O)C(=O)N2CCc2ccc(OC)c(OC)c2)c1` (stereo not shown) the remaining activity was 73.4% and 74.5%.
With `CC(C)(C)c1ccc(S(=O)(=O)c2cnc(SCC(=O)Nc3ccc4c(c3)OCCO4)[nH]c2=O)cc1` the remaining activity was 76.1% and 72.7%.

Study 3
Organism: Plasmodium berghei
Action: inhibitor
Cell line: Huh-7
Strain: liver stage
Tested at: 10 µM
Time: 24 h
Baseline: untreated control
`CC(=O)OCC(=O)[C@@]1(O)CC[C@H]2[C@@H]3CCC4=CC(=O)C=C[C@]4(C)[C@@]3(F)[C@@H](O)C[C@@]21C` gave an infection rate of 99.3%.
For `O=S(=O)(O)CCS`, the infection rate was 100%.
`CCN(CCO)CCCC(C)Nc1ccnc2cc(Cl)ccc12` (stereo not shown) gave an infection rate of 91.5%.
For `COc1ccc2cc(CCC(C)=O)ccc2c1`, the infection rate was 105%.
The infection rate of `CO[C@@]12[C@H](COC(N)=O)C3=C(C(=O)C(C)=C(N)C3=O)N1C[C@@H]1N[C@@H]12` is reported as 13.1%.
For `Cc1ccccc1N1C(=O)c2cc(S(N)(=O)=O)c(Cl)cc2NC1C` (stereo not shown), the infection rate was 93.8%.
With `CCCCC1=NC2(CCCC2)C(=O)N1Cc1ccc(-c2ccccc2-c2nnn[nH]2)cc1` the infection rate was 96.2%.
`Cc1cccc(CN2CCN(C(c3ccccc3)c3ccc(Cl)cc3)CC2)c1` (stereo not shown) has an infection rate of 89.2%.
The infection rate of `Cc1oncc1C(=O)Nc1ccc(C(F)(F)F)cc1` is reported as 103%.
`C=C1C[C@H]2[C@@H]3C=C(C)C4=CC(=O)CC[C@]4(C)[C@H]3CC[C@]2(C)[C@@]1(OC(C)=O)C(C)=O` gave an infection rate of 73.7%.
With `C#C[C@]1(OC(C)=O)CC[C@H]2[C@@H]3CCC4=C[C@@H](OC(C)=O)CC[C@@H]4[C@H]3CC[C@@]21C` the infection rate was 89.7%.

Study 4
SMILES: CCCCN(CCCC)C(=O)CN1C[C@@H](c2cc(OC)c3c(c2)OCO3)[C@H](C(=O)O)[C@H]1CC(C)(C)CCC
Effect on: cell-free assay
Method: competition with immobilised ligand
Tested at: 1 µM
Cyclin-dependent kinase-like 2 (CDKL2, Homo sapiens, UniProt Q92772) — remaining binding: 39.2%.
It gave 100% for remaining binding (Mast/stem cell growth factor receptor Kit (KIT, Homo sapiens, UniProt P10721, V559D/V654A)).
It gave 99.1% for remaining binding (Discoidin domain-containing receptor 2 (DDR2, Homo sapiens, UniProt Q16832)).
The remaining binding was 100% (Protein-tyrosine kinase 6 (PTK6, Homo sapiens, UniProt Q13882)).
The remaining binding was 100% (Tyrosine-protein kinase ABL1, phosphorylated (ABL1, Homo sapiens, UniProt P00519, H396P)).
The remaining binding was 98.4% (SNF-related serine/threonine-protein kinase (SNRK, Homo sapiens, UniProt Q9NRH2)).
The remaining binding was 99% (Ribosomal protein S6 kinase beta-1 (RPS6KB1, Homo sapiens, UniProt P23443)).
Fibroblast growth factor receptor 1 (FGFR1, Homo sapiens, UniProt P11362) — remaining binding: 100%.
For Cyclin-dependent kinase 18 (CDK18, Homo sapiens, UniProt Q07002): remaining binding read 92.4%.
The remaining binding was 99.9% (Ephrin type-A receptor 8 (EPHA8, Homo sapiens, UniProt P29322)).
